Results from different studies.
± marks the error that the study gave.

| SMILES | assay | system | conditions | scale | measurement | result |
| --- | --- | --- | --- | --- | --- | --- |
| C(=N\Nc1nnc(N/N=C/c2ccco2)c2ccccc12)/c1ccco1 | haemolysis | human | 1 mM, 45 min | – | haemolysis | 9.2% |
| N#Cc1c(-c2ccc(OCC3CC3)c(Cl)c2)ccn2c(CC(F)(F)F)cnc12 | – | rat liver microsomes | 5 µM, 15 min | – | compound metabolized | 28% |
| NCCCN1CC(=O)N(CC(c2ccccc2)c2ccccc2)CC(=O)N(CCCN)CC(=O)N(CC(c2ccccc2)c2ccccc2)CC(=O)N(CCCN)CC(=O)N(CC(c2ccccc2)c2ccccc2)CC1=O | RP-HPLC C18 | – | acetonitrile gradient | – | retention time | 7.3 min |
| CCCCCCCC(=O)NCCCC[C@@H]1NC(=O)[C@H](Cc2ccc(O)cc2)NC(=O)[C@H](C(C)C)NC(=O)[C@@H](NC(=O)[C@H](Cc2ccc(O)cc2)NC(=O)[C@@H]2CCCN2C(=O)CCN)CSSC[C@@H](C(=O)NCC(=O)NCC(=O)N[C@@H](CCCNC(=N)N)C(=O)NCC(N)=O)NC(=O)[C@H](CO)NC(=O)[C@H](Cc2c[nH]c3ccccc23)NC(=O)[C@H](CO)NC(=O)CCNC1=O | ELISA | mouse, plasma | intravenous, 10 min | – | remaining in blood | 5% |
| Cc1ccc(Oc2ccc(-c3ccn4c(CC5CC5)nnc4c3C(F)(F)F)cc2F)c(C)n1 | – | rat liver microsomes | 5 µM, 15 min | – | compound metabolized | 87% |
| Cc1nnc(-c2ccc(OCc3cn([C@@H]4O[C@H](C[18F])[C@@H](O)[C@H](O)[C@H]4O)nn3)cc2)nn1 | radio-TLC | mouse, plasma | 30 min | – | intact tracer | 60% |
| COc1ccc(CNc2ccc(-c3ccn4c(CC5CC5)nnc4c3C(F)(F)F)cc2F)cn1 | – | male Sprague Dawley rat, brain and plasma | subcutaneous, 10 mg/kg, 2 h | relative to: brain over plasma | tissue/plasma ratio | 0.4 |
| O=[N+]([O-])c1cccc(/C=N/Nc2nnc(N/N=C/c3cccc([N+](=O)[O-])c3)c3ccccc23)c1 | haemolysis | human | 100 mM, 45 min | – | haemolysis | 19 to 35% |
| NCCCN1CC(=O)N(Cc2ccccc2)CC(=O)N(CCCN)CC(=O)N(Cc2ccccc2)CC(=O)N(CCCN)CC(=O)N(Cc2ccccc2)CC(=O)N(CCCN)CC(=O)N(Cc2ccccc2)CC(=O)N(CCCN)CC(=O)N(Cc2ccccc2)CC1=O | RP-HPLC C18 | – | acetonitrile gradient | – | retention time | ~9 min |
| CC(=O)NC(Cc1c[nH]c2ccccc12)C(=O)NC(CCC(=O)C=[N+]=[N-])C(=O)O (stereo not shown) | – | C57BL/6 CES1-/- mouse, intestinal homogenate | – | – | stability | stable |
| Nc1nc(-n2nnc3c2CCC2C(CO)C2CC3)nc2c1ncn2C1OC(CO)C(O)C1O (mixture of isomers) | – | methanol | – | – | absorption maximum | 261 nm |
| Cc1cc(Oc2ccc(-c3ccn4c(CC5CC5)nnc4c3C(F)(F)F)cc2F)ccn1 | – | human liver microsomes | 5 µM, 15 min | – | compound metabolized | 14% |
| [18F]CCOCCOCCOCCn1cc(COc2ccc(-c3nncnn3)cc2)nn1 | radio-TLC | mouse, plasma | 30 min | – | intact tracer | 37% |
| NCCC(=O)N1Cc2ccccc2-c2c(nnn2-c2nc3c(N)ncnc3n2C2OC(CO)C(O)C2O)-c2ccccc21 (mixture of isomers) | – | methanol | – | – | absorption maximum | 276 nm |
| O=C(CCc1cn(CCOCCOCCOCC[18F])nn1)Nc1ccc(-c2nnc(-c3ccccn3)nn2)nc1 | PET | BALB/c nude mouse, LS174T xenograft, heart | intravenous, 1 h, together with: saline instead of antibody | – | tissue uptake | 1.5 ± 0.2 %ID/g |
| O=c1[nH]c(=O)n(C2OC(CO)C(O)C2O)cc1-n1nnc2c1CCC1C(CO)C1CC2 (mixture of isomers) | – | methanol | – | – | absorption maximum | 270 nm |
| O=[N+]([O-])c1ccc(/C=N/Nc2nnc(N/N=C/c3ccc([N+](=O)[O-])o3)c3ccccc23)o1 | haemolysis | human | 100 mM, 45 min | – | haemolysis | 19 to 35% |
| CCCCn1ccn2c(-c3ccc4[nH]ccc4c3)c(C)nc2c1=O | – | human liver microsomes | 5 µM, 15 min | – | metabolized fraction | 30% |
| [18F]CCn1cc(COc2ccc(-c3nnc(-c4ccccn4)nn3)cc2)nn1 | radio-TLC | mouse, plasma | 30 min | – | intact tracer | 10% |
| Oc1ccccc1/C=N/Nc1nnc(N/N=C/c2ccccc2O)c2ccccc12 | haemolysis | human | 100 mM, 45 min | – | haemolysis | 19 to 35% |
| CCCCn1ccn2c(-c3ccc(Oc4ccnc(C)c4)c(F)c3)c(C)nc2c1=O | – | Sprague Dawley rat male, brain | oral, 10 mg/kg, 1 h | – | brain concentration | 405 ng/g |
| CCCCCC(=O)OCn1cc(F)c(=O)[nH]c1=O | – | HCl or phosphate buffer | 80 µg/mL, pH 6.8, 37 °C, chemical stability | – | half-life | 36.8 ± 3.5 h |

Some of these lines once more:
| SMILES | assay | system | conditions | scale | measurement | result |
| --- | --- | --- | --- | --- | --- | --- |
| [18F]CCOCCOCCOCCn1cc(COc2ccc(-c3nncnn3)cc2)nn1 | radio-TLC | mouse, plasma | 30 min | – | intact tracer | 37% |
| NCCC(=O)N1Cc2ccccc2-c2c(nnn2-c2nc3c(N)ncnc3n2C2OC(CO)C(O)C2O)-c2ccccc21 (mixture of isomers) | – | methanol | – | – | absorption maximum | 276 nm |
| O=C(CCc1cn(CCOCCOCCOCC[18F])nn1)Nc1ccc(-c2nnc(-c3ccccn3)nn2)nc1 | PET | BALB/c nude mouse, LS174T xenograft, heart | intravenous, 1 h, together with: saline instead of antibody | – | tissue uptake | 1.5 ± 0.2 %ID/g |
| O=c1[nH]c(=O)n(C2OC(CO)C(O)C2O)cc1-n1nnc2c1CCC1C(CO)C1CC2 (mixture of isomers) | – | methanol | – | – | absorption maximum | 270 nm |
